Experimental data gathered from unrelated publications.
Parts stem from different laboratories: compare values within a part only. Positions count from the first letter of the parent shown.
Chain of UniProt Q00536 (whole entry, looked up): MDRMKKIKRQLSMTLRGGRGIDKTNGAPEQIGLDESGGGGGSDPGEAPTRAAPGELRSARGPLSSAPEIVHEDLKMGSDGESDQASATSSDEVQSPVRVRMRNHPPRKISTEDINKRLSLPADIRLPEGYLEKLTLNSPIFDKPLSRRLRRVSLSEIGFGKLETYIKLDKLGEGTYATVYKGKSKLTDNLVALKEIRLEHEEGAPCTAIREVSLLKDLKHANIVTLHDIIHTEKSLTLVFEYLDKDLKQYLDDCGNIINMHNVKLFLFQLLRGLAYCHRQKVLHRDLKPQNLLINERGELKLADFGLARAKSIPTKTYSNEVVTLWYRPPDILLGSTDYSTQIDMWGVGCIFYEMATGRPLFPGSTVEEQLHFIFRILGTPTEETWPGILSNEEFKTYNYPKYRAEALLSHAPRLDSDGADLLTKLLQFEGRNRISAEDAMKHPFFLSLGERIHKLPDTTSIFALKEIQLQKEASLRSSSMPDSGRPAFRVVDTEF
Chain of UniProt O95747 (whole entry, looked up): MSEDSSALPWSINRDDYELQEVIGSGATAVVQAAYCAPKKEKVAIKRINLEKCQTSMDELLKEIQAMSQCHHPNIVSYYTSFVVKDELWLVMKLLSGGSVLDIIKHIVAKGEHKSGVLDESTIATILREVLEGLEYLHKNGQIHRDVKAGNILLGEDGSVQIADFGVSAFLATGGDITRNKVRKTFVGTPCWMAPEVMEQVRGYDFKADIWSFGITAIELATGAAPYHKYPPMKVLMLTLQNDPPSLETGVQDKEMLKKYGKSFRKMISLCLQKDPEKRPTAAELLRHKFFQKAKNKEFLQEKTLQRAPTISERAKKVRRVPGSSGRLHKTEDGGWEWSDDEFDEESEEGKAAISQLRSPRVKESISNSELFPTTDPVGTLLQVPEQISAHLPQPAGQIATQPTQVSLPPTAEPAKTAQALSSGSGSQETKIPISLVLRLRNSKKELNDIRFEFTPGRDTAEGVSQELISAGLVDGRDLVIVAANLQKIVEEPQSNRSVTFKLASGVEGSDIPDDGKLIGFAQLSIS
Chain of UniProt P80192 (whole entry, looked up): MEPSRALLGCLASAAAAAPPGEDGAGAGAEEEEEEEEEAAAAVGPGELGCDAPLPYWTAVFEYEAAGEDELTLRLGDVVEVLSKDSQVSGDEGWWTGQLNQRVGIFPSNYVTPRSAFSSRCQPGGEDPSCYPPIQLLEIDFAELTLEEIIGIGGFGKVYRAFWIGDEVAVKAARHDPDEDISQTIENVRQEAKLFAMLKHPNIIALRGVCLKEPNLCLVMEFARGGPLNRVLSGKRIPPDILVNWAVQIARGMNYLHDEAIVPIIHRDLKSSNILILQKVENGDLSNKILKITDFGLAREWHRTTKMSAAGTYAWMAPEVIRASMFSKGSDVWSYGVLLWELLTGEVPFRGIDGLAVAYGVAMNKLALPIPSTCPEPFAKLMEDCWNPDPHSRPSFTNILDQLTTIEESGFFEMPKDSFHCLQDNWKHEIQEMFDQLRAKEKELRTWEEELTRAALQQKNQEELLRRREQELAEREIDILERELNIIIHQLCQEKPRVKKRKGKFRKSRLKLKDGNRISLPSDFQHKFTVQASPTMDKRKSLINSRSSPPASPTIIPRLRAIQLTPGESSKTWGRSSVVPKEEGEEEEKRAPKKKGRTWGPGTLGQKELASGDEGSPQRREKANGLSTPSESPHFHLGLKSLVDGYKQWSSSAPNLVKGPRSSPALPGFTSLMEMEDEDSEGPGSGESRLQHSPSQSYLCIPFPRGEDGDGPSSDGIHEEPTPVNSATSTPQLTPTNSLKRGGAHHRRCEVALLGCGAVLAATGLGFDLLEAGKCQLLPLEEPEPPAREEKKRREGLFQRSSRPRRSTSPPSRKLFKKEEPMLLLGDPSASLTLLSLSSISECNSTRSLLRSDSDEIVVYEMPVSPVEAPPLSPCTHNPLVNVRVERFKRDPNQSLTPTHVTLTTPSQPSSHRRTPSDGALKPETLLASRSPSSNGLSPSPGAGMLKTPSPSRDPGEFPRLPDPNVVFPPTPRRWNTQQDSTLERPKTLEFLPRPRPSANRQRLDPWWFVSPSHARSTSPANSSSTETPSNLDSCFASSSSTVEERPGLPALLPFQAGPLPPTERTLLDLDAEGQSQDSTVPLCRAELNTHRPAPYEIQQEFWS
Chain of UniProt Q9UHD2 (whole entry, looked up): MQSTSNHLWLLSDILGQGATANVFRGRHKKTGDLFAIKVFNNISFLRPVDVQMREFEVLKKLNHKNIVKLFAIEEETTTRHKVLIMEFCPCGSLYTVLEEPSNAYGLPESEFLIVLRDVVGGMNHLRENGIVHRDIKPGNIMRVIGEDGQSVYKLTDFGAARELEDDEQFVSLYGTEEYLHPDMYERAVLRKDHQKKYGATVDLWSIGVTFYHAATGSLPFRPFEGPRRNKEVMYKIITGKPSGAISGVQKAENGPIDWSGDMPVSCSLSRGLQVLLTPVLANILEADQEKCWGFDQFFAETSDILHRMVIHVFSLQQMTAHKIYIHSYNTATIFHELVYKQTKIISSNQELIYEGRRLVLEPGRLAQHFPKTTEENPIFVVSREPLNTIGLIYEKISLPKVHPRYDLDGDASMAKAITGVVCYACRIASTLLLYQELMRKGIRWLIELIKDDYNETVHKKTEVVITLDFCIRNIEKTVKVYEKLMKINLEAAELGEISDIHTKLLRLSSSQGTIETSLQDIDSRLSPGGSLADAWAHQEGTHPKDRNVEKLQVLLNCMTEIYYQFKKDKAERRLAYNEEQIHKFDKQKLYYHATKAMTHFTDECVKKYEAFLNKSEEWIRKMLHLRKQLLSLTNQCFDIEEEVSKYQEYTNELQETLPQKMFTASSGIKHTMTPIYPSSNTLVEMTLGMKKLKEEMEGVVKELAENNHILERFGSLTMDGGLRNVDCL
Chain of UniProt P07949 (whole entry, unmodified, looked up): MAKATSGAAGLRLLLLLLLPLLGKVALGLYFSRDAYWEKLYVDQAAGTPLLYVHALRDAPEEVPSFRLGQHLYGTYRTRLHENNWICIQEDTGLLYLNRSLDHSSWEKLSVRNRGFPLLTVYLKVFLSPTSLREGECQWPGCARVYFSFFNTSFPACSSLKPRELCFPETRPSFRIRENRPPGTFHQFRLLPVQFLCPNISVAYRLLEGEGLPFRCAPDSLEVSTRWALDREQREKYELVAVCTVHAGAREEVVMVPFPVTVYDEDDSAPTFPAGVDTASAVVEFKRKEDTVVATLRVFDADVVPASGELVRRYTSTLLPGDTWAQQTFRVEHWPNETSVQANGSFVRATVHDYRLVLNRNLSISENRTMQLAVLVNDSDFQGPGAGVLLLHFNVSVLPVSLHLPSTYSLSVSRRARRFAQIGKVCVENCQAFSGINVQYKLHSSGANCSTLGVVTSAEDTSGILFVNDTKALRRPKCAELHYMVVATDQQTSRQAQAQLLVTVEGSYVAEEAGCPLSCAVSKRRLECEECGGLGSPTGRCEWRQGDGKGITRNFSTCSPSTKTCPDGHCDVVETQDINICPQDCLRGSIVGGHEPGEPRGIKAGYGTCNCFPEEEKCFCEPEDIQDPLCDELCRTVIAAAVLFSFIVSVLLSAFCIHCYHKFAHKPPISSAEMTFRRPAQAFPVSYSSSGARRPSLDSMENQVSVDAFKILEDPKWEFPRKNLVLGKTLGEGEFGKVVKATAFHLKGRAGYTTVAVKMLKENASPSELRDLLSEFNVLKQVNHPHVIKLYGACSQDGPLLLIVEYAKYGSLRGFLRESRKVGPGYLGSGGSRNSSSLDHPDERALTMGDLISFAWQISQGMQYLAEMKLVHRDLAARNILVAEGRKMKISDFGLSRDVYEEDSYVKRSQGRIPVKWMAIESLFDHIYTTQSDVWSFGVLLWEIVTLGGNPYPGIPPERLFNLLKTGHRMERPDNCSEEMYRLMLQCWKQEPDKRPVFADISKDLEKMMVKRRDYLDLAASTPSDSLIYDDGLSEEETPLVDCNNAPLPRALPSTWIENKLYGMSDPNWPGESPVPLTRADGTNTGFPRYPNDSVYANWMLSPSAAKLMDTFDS

Study 1
Target: Serine/threonine-protein kinase 24 (STK24, Homo sapiens, UniProt Q9Y6E0)
Chain of UniProt Q9Y6E0 (whole entry, looked up): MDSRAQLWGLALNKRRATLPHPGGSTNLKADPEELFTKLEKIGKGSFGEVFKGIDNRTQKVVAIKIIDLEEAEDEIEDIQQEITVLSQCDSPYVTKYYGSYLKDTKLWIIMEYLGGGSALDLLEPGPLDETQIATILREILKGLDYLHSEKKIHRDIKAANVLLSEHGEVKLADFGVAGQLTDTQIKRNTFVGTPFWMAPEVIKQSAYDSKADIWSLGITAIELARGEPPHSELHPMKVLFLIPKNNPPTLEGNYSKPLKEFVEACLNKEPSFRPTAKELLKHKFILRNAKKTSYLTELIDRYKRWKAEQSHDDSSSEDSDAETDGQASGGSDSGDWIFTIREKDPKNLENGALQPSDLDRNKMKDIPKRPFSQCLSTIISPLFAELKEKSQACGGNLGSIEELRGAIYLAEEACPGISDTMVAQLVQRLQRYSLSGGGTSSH
Effect on: enzyme activity
Mode: inhibitor
Tested at: 0.5 µM
Baseline: control
SMILES | remaining activity [%]
O=C(O)c1ccc2c3c1cccc3c(=O)n1c3ccccc3nc21 | 87.6
Cc1cccc(-c2[nH]c(C(C)(C)C)nc2-c2ccc3c(c2)OCO3)n1 | 100
Cc1ccc(NC(=O)c2ccc(CN3CCN(C)CC3)cc2)cc1Nc1nc(-c2cccnc2)cs1 | 104
CN(C)c1ccc(C=C2C(=O)Nc3ccccc32)cc1 | 96.7
Cc1ccc(Nc2nccc(N(C)c3ccc4c(C)n(C)nc4c3)n2)cc1S(N)(=O)=O | 106
NCCNc1ncc(C(N)=O)c(Nc2cccc(C(F)(F)F)c2)n1 | 95
OCC(O)CCON=C1C(c2c(O)[nH]c3ccccc23)=Nc2ccccc21 (stereo not drawn) | 51.9
N#CC(C#N)=C(N)/C(C#N)=C/c1ccc(O)cc1 | 103
Nc1ncnc2n[nH]c(Nc3ccc(F)cc3)c12 | 81.6
Nc1[nH]nc2nc3ccccc3nc12 | 89.1
COc1ccc(OC)c2c(=S)c3ccccc3[nH]c12 | 78.9
O=C1NC(=O)C(c2cn(CCCn3ccnc3)c3ccccc23)=C1Nc1ccccc1 | 51.7
CC(C)[C@H](CO)Nc1nc(Nc2cc(N)cc(Cl)c2)c2ncn(C(C)C)c2n1 | 75.9
CNC(=O)c1cc(Oc2ccc(NC(=O)Nc3ccc(Cl)c(C(F)(F)F)c3)cc2)ccn1 | 110
COc1cc2ncnc(Nc3ccc(Oc4ccccc4)cc3)c2cc1OC | 91.6

Study 2
Compound: Cc1cc(-n2nc(Cc3cc(F)cc(C(F)(F)F)c3)nc2C)ccc1C(N)=O
Method: competition with immobilised ligand
Tested at: 1 µM
target | assay | remaining binding [%]
G protein-coupled receptor kinase 3 (GRK3, Homo sapiens, UniProt P35626) | cell-free assay | 100
G protein-coupled receptor kinase 4 (GRK4, Homo sapiens, UniProt P32298) | cell-free assay | 100
Serine/threonine-protein kinase WNK2 (WNK2, Homo sapiens, UniProt Q9Y3S1) | cell-free assay | 100
Cyclin-dependent kinase 16 (CDK16, Homo sapiens, UniProt Q00536) | cell-free assay | 100
Serine/threonine-protein kinase TAO2 (TAOK2, Homo sapiens, UniProt Q9UL54) | cell-free assay | 91
Serine/threonine-protein kinase TBK1 (TBK1, Homo sapiens, UniProt Q9UHD2) | cell-free assay | 89
Phosphatidylinositol 4,5-bisphosphate 3-kinase catalytic subunit alpha isoform (PIK3CA, Homo sapiens, UniProt P42336) | cell-free assay | 100
Ephrin type-B receptor 4 (EPHB4, Homo sapiens, UniProt P54760) | cell-free assay | 100
Serine/threonine-protein kinase SIK3 (SIK3, Homo sapiens, UniProt Q9Y2K2) | cell-free assay | 83
Testis-specific serine/threonine-protein kinase 3 (TSSK3, Homo sapiens, UniProt Q96PN8) | cell-free assay | 55
Tyrosine-protein kinase ABL1, phosphorylated (ABL1, Homo sapiens, UniProt P00519, E255K) | binding | 93
Serine/threonine-protein kinase mTOR (MTOR, Homo sapiens, UniProt P42345) | cell-free assay | 78
Proto-oncogene tyrosine-protein kinase receptor Ret (RET, Homo sapiens, UniProt P07949, V804L) | cell-free assay | 100
Rhodopsin kinase GRK7 (GRK7, Homo sapiens, UniProt Q8WTQ7) | cell-free assay | 100
5'-AMP-activated protein kinase catalytic subunit alpha-2 (PRKAA2, Homo sapiens, UniProt P54646) | cell-free assay | 100
Peripheral plasma membrane protein CASK (CASK, Homo sapiens, UniProt O14936) | cell-free assay | 100
Mitogen-activated protein kinase kinase kinase 9 (MAP3K9, Homo sapiens, UniProt P80192) | cell-free assay | 100
Epidermal growth factor receptor (EGFR, Homo sapiens, UniProt P00533) | cell-free assay | 100
Tyrosine-protein kinase JAK1, JH1 (JAK1, Homo sapiens, UniProt P23458) | cell-free assay | 100
Serine/threonine-protein kinase OSR1 (OXSR1, Homo sapiens, UniProt O95747) | cell-free assay | 91

Study 3
Target: Ras GTPase-activating protein-binding protein 1, full length (G3BP1, Homo sapiens, UniProt Q13283)
Chain of UniProt Q13283 (whole entry, looked up): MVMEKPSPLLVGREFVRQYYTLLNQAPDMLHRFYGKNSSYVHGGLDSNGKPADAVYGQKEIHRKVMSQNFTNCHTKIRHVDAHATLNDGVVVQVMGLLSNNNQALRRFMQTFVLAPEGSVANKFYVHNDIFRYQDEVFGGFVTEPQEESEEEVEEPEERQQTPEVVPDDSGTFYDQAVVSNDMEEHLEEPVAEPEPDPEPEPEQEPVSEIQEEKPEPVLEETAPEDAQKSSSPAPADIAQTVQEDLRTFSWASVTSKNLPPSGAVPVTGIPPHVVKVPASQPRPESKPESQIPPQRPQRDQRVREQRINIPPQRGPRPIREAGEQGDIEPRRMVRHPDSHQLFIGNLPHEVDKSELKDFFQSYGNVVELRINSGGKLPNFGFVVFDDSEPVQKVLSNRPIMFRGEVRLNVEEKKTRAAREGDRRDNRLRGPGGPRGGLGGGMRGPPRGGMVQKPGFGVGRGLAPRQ
Method: RNA Bind-n-Seq
Molecule type: RNA
Medium: in vitro
Tested at: 200 nM
Notes: whole 134-nt RNA, ends assumed
With: 150 mM LiCl
Baseline: input library
Direction: higher = stronger binding
All molecules: 7-deaza-guanosine replaces G
Sequence | log2 enrichment
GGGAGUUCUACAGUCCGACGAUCUGGCCCUGGUGGCAUGCGGGGAGGACGAGGUGGCCUCAUGGAUCGUGGUGGUCCCGGUGGAAUGUUCAGAGGUGGCCGUGGUGGAGACAGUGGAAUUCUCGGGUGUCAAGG | -0.0179
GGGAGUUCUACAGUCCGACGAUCUGGCCCUGGAGGCAUGCGGGGAGGAAGAGGUGGCCUCAUGGAUCGUGGUGGUCCCGGUGGAAUGUUCAGAGGUGGCCGUGGUGGAGACAGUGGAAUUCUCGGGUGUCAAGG | 0.126
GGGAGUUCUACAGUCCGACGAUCCAAGUCCUGUGCUACACAUCGUAUGUACCGAAUCGGGGCCCGGGGCCCGGGCCCGGAAAGUAUUAUGUUACGCCGUUCGGAUCUGCACUUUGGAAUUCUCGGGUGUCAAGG | -0.969
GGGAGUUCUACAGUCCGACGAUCAGUCCUGUGCUACACAUCGUAUGUACCGAAUCGGCCCCCGGGGCCCCCGGGCCCCCGGAAAGUAUUAUGUUACGCCGUUCGGAUCUGCACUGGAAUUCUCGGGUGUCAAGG | -1.13
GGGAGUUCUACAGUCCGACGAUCCCUCAAGUCCUGUGCUACACAUCGUAUGUACCGAAUCGGAGGUUUUUGGAGGAAAGUAUUAUGUUACGCCGUUCGGAUCUGCACUUCCAGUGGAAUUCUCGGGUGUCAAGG | -0.199
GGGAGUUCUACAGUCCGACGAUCUCCUGUGCUACACAUCGUAUGUACCGAAUCGGGGAAAAAGGAAAAAGGGGAAAAAGGGGAAAGUAUUAUGUUACGCCGUUCGGAUCUGCAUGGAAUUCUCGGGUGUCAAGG | -0.287
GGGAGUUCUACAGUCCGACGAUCAGUCCUGUGCUACACAUCGUAUGUACCGAAUCGGGGAGGGGAAAAAGGGGAAAGGGGAAAGUAUUAUGUUACGCCGUUCGGAUCUGCACUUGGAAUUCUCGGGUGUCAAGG | 0.302
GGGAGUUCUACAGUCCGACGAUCCCUCAAGUCCUGUGCUACACAUCGUAUGUACCGAAUCGGGGCCGGCCGGCCGGAAAGUAUUAUGUUACGCCGUUCGGAUCUGCACUUCCAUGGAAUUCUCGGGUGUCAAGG | 0.49

Study 4
Target: ABI1, truncated, D143A, DHFR fusion (Arabidopsis thaliana)
Method: DHFR PCA, deep sequencing
Medium: yeast
Notes: methotrexate growth selection, single substitutions
With: (+)-ABA 58 µM
Baseline: wild-type fitted maximum
Direction: higher = stronger binding
Starting sequence: PYL1, truncated, DHFR fusion (Arabidopsis thaliana); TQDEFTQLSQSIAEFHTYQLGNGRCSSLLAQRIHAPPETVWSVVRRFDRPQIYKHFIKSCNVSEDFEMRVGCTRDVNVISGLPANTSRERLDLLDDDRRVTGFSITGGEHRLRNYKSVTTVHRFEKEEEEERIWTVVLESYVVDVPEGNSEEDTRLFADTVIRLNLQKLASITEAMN; partner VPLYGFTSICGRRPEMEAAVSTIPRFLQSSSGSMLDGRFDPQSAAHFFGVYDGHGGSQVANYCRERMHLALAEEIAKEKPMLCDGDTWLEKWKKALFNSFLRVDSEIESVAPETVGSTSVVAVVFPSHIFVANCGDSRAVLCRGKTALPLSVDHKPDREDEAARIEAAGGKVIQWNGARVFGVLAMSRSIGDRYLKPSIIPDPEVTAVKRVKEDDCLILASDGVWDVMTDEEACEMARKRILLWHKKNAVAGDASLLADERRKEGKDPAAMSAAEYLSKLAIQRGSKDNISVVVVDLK
Change | relative binding score
E67T | 89.2%
P83D | 55.2%
I105R | -1.9%
L20W | 76.4%
F103S | -4.07%
T106E | 86.2%
E131D | 101%
G102P | -3.78%

Some of these lines once more (study 2):
target | assay | remaining binding [%]
Rhodopsin kinase GRK7 (GRK7, Homo sapiens, UniProt Q8WTQ7) | cell-free assay | 100
G protein-coupled receptor kinase 3 (GRK3, Homo sapiens, UniProt P35626) | cell-free assay | 100
Serine/threonine-protein kinase OSR1 (OXSR1, Homo sapiens, UniProt O95747) | cell-free assay | 91
Proto-oncogene tyrosine-protein kinase receptor Ret (RET, Homo sapiens, UniProt P07949, V804L) | cell-free assay | 100
Phosphatidylinositol 4,5-bisphosphate 3-kinase catalytic subunit alpha isoform (PIK3CA, Homo sapiens, UniProt P42336) | cell-free assay | 100
Serine/threonine-protein kinase SIK3 (SIK3, Homo sapiens, UniProt Q9Y2K2) | cell-free assay | 83
Ephrin type-B receptor 4 (EPHB4, Homo sapiens, UniProt P54760) | cell-free assay | 100
Serine/threonine-protein kinase mTOR (MTOR, Homo sapiens, UniProt P42345) | cell-free assay | 78
